Published values of several laboratories.
A part holds a random share of what one study measured. Substitutions count along the parent as printed.

Block 1 — method: protein binding microarray; form: double-stranded DNA, one strand shown; sample: in vitro; concentration: not given; reference: not given; direction: higher = stronger binding
Target: Histone acetyltransferase KAT6A, winged helix 2, GST fusion (KAT6A, Homo sapiens, UniProt Q92794, residues 85-181)
Setting: 8-mer, flanks averaged, mean of 2 arrays, mostly near background
Residues (chain): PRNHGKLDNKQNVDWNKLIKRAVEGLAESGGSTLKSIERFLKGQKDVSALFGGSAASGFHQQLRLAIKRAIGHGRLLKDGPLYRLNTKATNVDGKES
| Sequence | E-score |
| --- | --- |
| CTAACCCA | -0.0655 |
| GGGGCTGA | -0.0155 |
| GAAAACAA | 0.117 |
| GGGCCGAC | 0.078 |
| CACTGCGA | 0.162 |
| ACCCCCGG | -0.128 |
| TACTTGAA | -0.103 |
| CACAAACC | -0.0384 |
| GCGTCAGC | 0.0202 |
| CATGACGA | 0.106 |
| ACTAGGAG | 0.0246 |
| CGGCAAGC | 0.113 |
| TCGGCAGA | 0.092 |
| GACCCAGA | 0.0474 |
| AGCCTTAT | -0.278 |
| CCCCTCTC | 0.0304 |
| CTGCGGCA | 0.137 |
| ATCATGCC | -0.0662 |
| AAAAGAGC | -0.103 |
| CTAGAAAC | -0.0888 |
| ACCCACGT | -0.101 |
| ATTCTCTC | -0.0442 |
| GACGACCC | 0.0401 |
| AAAGCAAC | 0.237 |
| AGCCGTTC | -0.12 |

Block 2 — method: RNA Bind-n-Seq; form: RNA; sample: in vitro; concentration: not given; setting: RNA with constant flanks, ends assumed; reference: input RNA pool; direction: higher = stronger binding
Target: RING finger protein unkempt homolog, zinc fingers 1-6, GST-SBP tag (UNK, Homo sapiens, UniProt Q9C0B0, residues 30-357)
Construct (chain): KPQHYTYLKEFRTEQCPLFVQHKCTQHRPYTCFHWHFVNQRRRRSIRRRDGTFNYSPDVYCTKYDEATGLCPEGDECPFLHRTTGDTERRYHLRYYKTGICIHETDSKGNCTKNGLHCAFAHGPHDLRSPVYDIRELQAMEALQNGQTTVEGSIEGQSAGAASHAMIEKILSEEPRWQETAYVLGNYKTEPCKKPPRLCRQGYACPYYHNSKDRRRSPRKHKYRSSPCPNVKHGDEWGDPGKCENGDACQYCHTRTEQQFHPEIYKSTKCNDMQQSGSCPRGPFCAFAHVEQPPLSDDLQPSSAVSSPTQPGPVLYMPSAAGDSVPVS
| Sequence | bound/input enrichment |
| --- | --- |
| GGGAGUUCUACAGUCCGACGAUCCACAAUUGCUCUUACAAUUACAAAGCUGAUGCUGCUGAGAAAAUCAGAAAAGAAAAUCCAGCCGUUGUUGGUGAAAAGAUCCAGAAGAUUUGAACUCCUGCUGGAAUACAAAAUCCUUUGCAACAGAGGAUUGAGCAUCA | 0.205 ratio |
| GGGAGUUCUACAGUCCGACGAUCAGGUCCAGACACGGGAACGGAGGCCUGGCUGCGUUGCCCUAUCUCCGUCUCCGCCACCCACUCCGCGUUUUAGGCAUCAAUUACCAGCAGUUUCUCCGCCACUAUCUGGAAAAUUACCCGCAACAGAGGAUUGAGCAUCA | 0.349 ratio |
| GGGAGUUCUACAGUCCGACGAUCGAGUUCCGAUCUGGAAAGGCUCCUAUCCUCAUUGCCACGGAUGUAGCCUCCCGUGGGCCCGAUGUGGAAGAUGUCAAGUUUGUCAUCAACUACGAUUAUCCAAACAGCUCAGAGGAUUAUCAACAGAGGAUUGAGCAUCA | 0.143 ratio |
| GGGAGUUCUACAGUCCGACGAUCGAAUUGAUUAAGGAAAAACUUAUUCUUCCCUAUGUGGAACUGGAUCUGCAUAGCUAUGAUUCCGGCACCGAGAAUCGUGAUGCCACCAAUGACCAGGUCACCAAAGAUGCUGCAGAGGCUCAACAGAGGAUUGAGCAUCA | 0.199 ratio |
| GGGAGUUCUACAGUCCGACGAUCAAACUAAAUGGAACCAUGUGCUAAUUUUUCACAAUUAUUGACCUGUAUUGAUUGCCACUGCCGUUUGGUAUUUCCCUUUACUUUGGUGGCCUGCUUCCCUCAUGCCCUGGAAUACAACUCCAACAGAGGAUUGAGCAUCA | 0.261 ratio |
| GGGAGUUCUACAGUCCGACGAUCAAAGAUGGAGAAAAGCAAGAUCUUUGAUAUCUUUCAUGUUUGCCUGCAGUUGAACAAUACUUCCGAGUACUUUUUAAAAUUAUUUCUCACAAAGAAAUGAAUGUACAAUCCAAUGAAAACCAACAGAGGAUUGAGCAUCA | 0.076 ratio |
| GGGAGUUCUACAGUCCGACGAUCGGACUGCAGAACGGCUCAGACUUGCAGUUCAUCGAGAUGCAGAGAGAUGCCAAUAGACAAAUCCGUGAAUACAAAUUCAAGCUUUCGAAAGCAGAACAAGACAUAGCUACCUUGGAACAACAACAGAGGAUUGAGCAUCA | 0.211 ratio |
| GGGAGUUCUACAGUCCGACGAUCUUUCGCCUGGCGCUGGGCAGCUUCGUGGAAGAGUACAACAACAAGGUUCAGCUUGUUGGUUCCGAUGAGGAGAGUUCAGAGUUUAUUUGCCGAAACACCUUUGACCACCCGUACCCUACCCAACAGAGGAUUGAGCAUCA | 0.131 ratio |
| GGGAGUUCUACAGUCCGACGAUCAGAAAAAUCAAACACUCCUUUAUAAUCUUUUUGACAUUUCUCAAUCUGCACAGACACCAGCCGCAGUUAUUGGACUUACAUGUAGAUUGGAUAUUUUGGAACUCUUAGAAAAGAGAGUGACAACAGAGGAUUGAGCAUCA | 0.517 ratio |
| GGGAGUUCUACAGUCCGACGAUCAUGAUGAUUUUCAUUGAAGCAUCCUCAGAAAACCCUUGUAGUCUUUACUCUUCUGUCUGUUACCGCCCCCAGGCAGAAAAAGUUUACAAGUUAUGCAGCCCACCCGCUGAUUUGCAUAAGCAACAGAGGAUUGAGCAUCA | 0.381 ratio |
| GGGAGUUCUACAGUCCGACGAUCGAGUAAGCAUGCUGUACAUUGUUUUGUGUUUAGUUUUACACCAAACUGUAUUACAGUACUCUCCGUAUUCACCAGCAUACUCACUAUCUGCCUAAGAUAUGCAGCCUUUGUGUUACAAUACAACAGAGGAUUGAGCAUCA | 0.202 ratio |

Block 3 — method: DHFR PCA, deep sequencing; sample: yeast; added: (+)-ABA 0.0091 µM; reference: wild-type fitted maximum; direction: higher = stronger binding
Target: ABI1, truncated, D143A, DHFR fusion (Arabidopsis thaliana)
Setting: methotrexate growth selection, single substitutions
Parent: PYL1, truncated, DHFR fusion (Arabidopsis thaliana); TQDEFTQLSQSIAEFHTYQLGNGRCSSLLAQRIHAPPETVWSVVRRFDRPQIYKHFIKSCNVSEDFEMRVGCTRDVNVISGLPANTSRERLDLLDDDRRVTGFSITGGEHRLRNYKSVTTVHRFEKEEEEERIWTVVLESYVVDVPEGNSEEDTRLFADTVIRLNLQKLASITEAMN; partner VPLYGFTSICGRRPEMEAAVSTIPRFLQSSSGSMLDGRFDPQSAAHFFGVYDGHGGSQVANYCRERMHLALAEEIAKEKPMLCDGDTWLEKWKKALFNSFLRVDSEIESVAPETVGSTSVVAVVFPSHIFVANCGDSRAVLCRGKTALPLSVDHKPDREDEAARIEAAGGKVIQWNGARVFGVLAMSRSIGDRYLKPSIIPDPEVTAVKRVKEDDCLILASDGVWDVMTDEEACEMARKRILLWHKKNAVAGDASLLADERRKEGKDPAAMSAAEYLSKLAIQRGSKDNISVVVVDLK
| Change | relative binding score [%] |
| --- | --- |
| L169M | 2.18 |
| T101W | -8.45 |
| V100D | -9.2 |
| P37R | -0.0609 |
| L112K | -1.18 |
| E89G | 2.08 |
| E139T | 8.57 |
| T135Q | 3.94 |
| E147P | 30.3 |
| R123P | 22.9 |
| V76N | -0.69 |
| L138K | 0.567 |
| D153T | -2.54 |
| D159S | -1.12 |
| Y53N | 0.906 |
| E128L | 8.39 |
| R46L | 3.4 |
| Y53G | -2.09 |
| R69S | 17.3 |
| Q31K | 9.51 |
| R32D | -1.27 |
| C72K | -1.97 |

Block 4 — method: RNA Bind-n-Seq; form: RNA; sample: in vitro; concentration: 365 nM; reference: no-protein control; direction: higher = stronger binding
Target: RNA binding protein fox-1 homolog 2, RRM domain, GST-SBP tag (RBFOX2, Homo sapiens, UniProt O43251-10, residues 100-194)
Setting: natural RNA segment, single round, ends assumed
Construct (chain): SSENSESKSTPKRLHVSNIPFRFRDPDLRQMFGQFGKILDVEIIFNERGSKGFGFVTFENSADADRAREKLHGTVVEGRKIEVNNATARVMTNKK
| Sequence | RBNS enrichment (R) |
| --- | --- |
| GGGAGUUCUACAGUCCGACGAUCUAAUGUAAUUUAGUUAGAAUGCCAGAAGGAGAACACUAUUUUCAUACCCUACUUUUUCUGUACCUAAAUUUUCUUAAUAAAAUUUAGUAUAGCACUACAUUCUUUUUUAAUGGAAUUCUCGGGUGCCAA | 0.813 |
| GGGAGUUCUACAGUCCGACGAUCUCUCUGACUCUUGCCUUUCCACCUGCUUUCUCCUGGGCCCGCUUUGCCUGCUUGAAGGAACAGUGCUGUUCUGGAGCUGCUGUUCCAACAGACAGGGCCUAGCUUUCAUUUGGAAUUCUCGGGUGCCAA | 0.717 |
| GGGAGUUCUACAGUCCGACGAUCGUAGCAAAUUGGUUCUGAAUUAUGCAACUGUUUGCUAUUUAGUAAACUAGCAAAUGAUGCAUGUAUUUUGUUUUUCAUGUACUGGGCAAUAUGAGUAAAAUCUGUCCCUUUGGAAUUCUCGGGUGCCAA | 0.513 |
| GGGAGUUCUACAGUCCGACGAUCAGGCUUUACAUAAGAAAUUAUUAAACAAAACAAGGGGGGCAAUAAAUGUAUAUAACAUUAAUAAUGUCGCGUAGGUGUAGGUUCCUGGAUGCAUUUGGAUGUACAGACUGUGGAAUUCUCGGGUGCCAA | 2.62 |
| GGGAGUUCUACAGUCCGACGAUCUGAUGUAUCUUCAUUGUCAUCUCUCAUCCUGAUGUGUGCCAGUUAGAGGACUGUCUGGUAUCCAAGACGACUAGUGUAUGUCAGGUCCUCAAAUCACCAACAGCUUGUUAUGGAAUUCUCGGGUGCCAA | 1.37 |
| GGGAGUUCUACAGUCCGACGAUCAUACACAUGGAGUAAUUGAAUGACUUUCUCUUUUGGCAUCUGUAUGUGCAGAAUACUCAACAAUGUUCAAAGACCUUCUUAACUAUUCAGAAGGCAGGAAGUCCUACACCUGGAAUUCUCGGGUGCCAA | 0.505 |
| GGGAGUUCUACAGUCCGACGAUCGGGUGUCUCGGAGAGUUGCCAUAUCUCCUUGUGUGAAUUGCGUGCUUGGAAGCAAUUUUUAAAGGGAGUGGAAAGCUUAGGGAAAUCGUUUGUAUUUGGAGUCUUGCUGUUGGAAUUCUCGGGUGCCAA | 2.65 |
| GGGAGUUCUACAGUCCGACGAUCGGGGCCGGCAGGCACAGGGAGGAGGUACAGAAGCCGGCAACGCUUGCUAUUUAUUUUACAAACUGGACUGGCUCAGGCAGGGCCACGGCUGGGCUCCAGCUGCCGGCCCAUGGAAUUCUCGGGUGCCAA | 0.645 |
| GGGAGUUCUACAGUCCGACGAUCACUUCUGUAUUUCAAUCAUAUCAUGAACAUUUUAUUUUGCUAAAUCUUGUGUCAUGUGUAGGCUGUAAUAUGUGUACAUUGUGUUUAAGAGAAAAAUGAAACCCACAUGCUGGAAUUCUCGGGUGCCAA | 0.413 |
| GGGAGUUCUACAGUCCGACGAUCUGCUGCCCUUGCCUGUUCCCCAUUAGCACAGGAGUAGCAGCAGCAGGACAGGCAAGAGCCUCACAAGUGGGACUCUGGGCCUCUGACCAGCUGUGCGGCAUGGGCUAAGUUGGAAUUCUCGGGUGCCAA | 0.397 |
| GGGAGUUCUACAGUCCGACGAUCUCAAAGUGGAGUAACGUGUAUUUUGAAAUGAUUUUGUGUUCUAUAUAGAAUGUCCCAGUUAAGAUUUUACAGAAGCACCUGGAAUAUCUCAUUAAAAAUUUAAAAACUCUUGGAAUUCUCGGGUGCCAA | 1.05 |
| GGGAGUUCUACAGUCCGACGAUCCCCUGCCUCAAAAAAACAAGCAAAGCCGGGCGUGGUGGCGCACGCCUUUAAUCCCAGCACUUGGGAGGCAGAGGCAGGCGGAUUUCUGAGUUCCAGGCCAGCCUGGUCUAUGGAAUUCUCGGGUGCCAA | 0.314 |

For quick reference, copied from above (block 1):
| Sequence | E-score |
| --- | --- |
| CACTGCGA | 0.162 |
| ATTCTCTC | -0.0442 |
| GCGTCAGC | 0.0202 |
| TCGGCAGA | 0.092 |
| AGCCGTTC | -0.12 |
